Published values gathered from unrelated publications.
Each numbered part is a random draw from the data of one study; scales do not carry over between parts.

Study 1
Target: Sal-like protein 4, full length isoform B (SALL4, Homo sapiens, UniProt Q9UJQ4-2, residues 1-616)
Technique: universal PBM
Molecule type: double-stranded DNA, one strand shown
Matrix: in vitro
Tested at: not given
Setting: 8-mer, flanks averaged, mean of replicates
Reading: higher = stronger binding
Target sequence (chain): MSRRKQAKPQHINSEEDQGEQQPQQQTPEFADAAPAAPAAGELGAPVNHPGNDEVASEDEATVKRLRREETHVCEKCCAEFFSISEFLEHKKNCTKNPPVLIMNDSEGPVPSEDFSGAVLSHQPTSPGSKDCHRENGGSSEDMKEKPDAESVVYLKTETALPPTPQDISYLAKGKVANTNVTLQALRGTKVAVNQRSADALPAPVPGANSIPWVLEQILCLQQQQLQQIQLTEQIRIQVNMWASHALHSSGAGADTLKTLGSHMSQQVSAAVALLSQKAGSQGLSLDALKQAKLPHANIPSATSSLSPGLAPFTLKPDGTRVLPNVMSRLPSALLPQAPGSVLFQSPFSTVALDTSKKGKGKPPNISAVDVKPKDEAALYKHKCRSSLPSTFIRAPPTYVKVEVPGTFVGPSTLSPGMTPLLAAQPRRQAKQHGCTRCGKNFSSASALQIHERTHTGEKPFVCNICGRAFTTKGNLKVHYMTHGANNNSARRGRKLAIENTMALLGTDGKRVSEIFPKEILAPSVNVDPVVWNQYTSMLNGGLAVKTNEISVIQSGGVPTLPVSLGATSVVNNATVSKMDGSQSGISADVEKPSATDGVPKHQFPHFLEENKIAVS
Strand | E-score
GCGTTTCC | -0.175
ATCTAGTA | 0.234
CCTACAAG | 0.0323

Study 2
Target: Interferon regulatory factor 5, full length, phosphomimetic (IRF5, Homo sapiens, UniProt Q13568-2, residues 1-514, S451D/S453D/S456D/S462D)
Technique: protein-binding microarray
Molecule type: double-stranded DNA, one strand shown
Matrix: in vitro
Tested at: 940 nM top
Setting: 60-bp whole probe
Added: salmon DNA 0.4 mg/ml
Relative to: random background probes
Reading: higher = stronger binding
Strand | fitted relative affinity [z-score]
GCCTAGCACGACGAACTGGTGACTGGAGACGTGCTAGTCTTGATTCGCTTGACGCTGCTG | -0.359
GCCTAGCACGACGATATGAGACTGGAGACGTGCTAGGTCTTGATTCGCTTGACGCTGCTG | -0.488
GCCTAGCACGGGCCGAGGCTGTGGCCACCGTGCTAGGTCTTGATTCGCTTGACGCTGCTG | -1.05

Study 3
Target: Histone acetyltransferase KAT6A, winged helix 1, GST fusion (KAT6A, Homo sapiens, UniProt Q92794, residues 1-85)
Technique: protein binding microarray
Molecule type: double-stranded DNA, one strand shown
Matrix: in vitro
Tested at: not given
Setting: 8-mer, flanks averaged, mean of 2 arrays, mostly near background
Relative to: not given
Reading: higher = stronger binding
Residues (chain): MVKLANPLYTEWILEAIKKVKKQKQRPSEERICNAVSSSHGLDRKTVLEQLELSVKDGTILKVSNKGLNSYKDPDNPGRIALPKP
Strand | E-score
AGCCTAAT | -0.246
CCCACTAA | -0.126
AATGGATA | -0.194
ACTCTTAA | -0.226
ACCGAAAA | -0.25
ACTTTTCA | -0.221

Other studies, line by line
Substance | target | assay | system | setting | how to read | endpoint | value
PhoQ, residues 284 288 289 292 302 303 TTSMTC | PhoP, residues 12 14 15 18 19 NQGLL (Escherichia coli, UniProt P23836) | Sort-seq, item: YFP reporter | E. coli | PhoQ-PhoP variant library, added: 10 µM Mg2+ | relative to: high Mg2+ state, higher = stronger signaling | fold induction | 4.97

For quick reference, copied from above (study 3):
Strand | E-score
ACTCTTAA | -0.226
AATGGATA | -0.194
